Published values from different studies.
Protocols differ between the studies behind these lines.
Organism: Pseudomonas aeruginosa

Molecule	assay	test system	conditions	MIC
CCCCCCCCn1cc[n+](CCCCOc2cc(OCCCC[n+]3ccn(CCCCCCCC)c3)cc(OCCCC[n+]3ccn(CCCCCCCC)c3)c2)c1.[Br-].[Br-].[Br-]	–	PAO1	–	4 µM
CNC(C)C1CCC(N)C(OC2C(N)CC(N)C(OC3OCC(C)(O)C(NC)C3O)C2O)O1 (stereo not drawn)	microbial growth, broth dilution	PAO1	–	1 µM
CC(C)C[C@@H]1NC(=O)[C@@H](CC(C)C)NC(=O)[C@H](CCN)NC(=O)[C@@H](NC(=O)[C@H](CCN)NC(=O)[C@@H](N)[C@@H](C)O)CCNC(=O)[C@H]([C@@H](C)O)NC(=O)[C@H](CCN)NC(=O)[C@H](CCN)NC1=O	broth microdilution	ATCC 27853, cation-adjusted Mueller-Hinton broth	–	> 138 µM
CC[C@H]1OC(=O)[C@H](C)[C@@H](OC(=O)Cc2c(F)cccc2F)[C@H](C)[C@@H](O[C@@H]2O[C@H](C)C[C@H](N(C)C)[C@H]2O)[C@](C)(OC)C[C@@H](C)C(=O)[C@H](C)[C@@H](O)[C@]1(C)O	–	PAO397, five efflux pumps deleted	–	> 32 µg/mL
CCCC(=O)Oc1c(C)c(OC)c2c(c1C)OC(=O)[C@@H](CC)[C@]2(O)/C=C/c1ccccc1 (racemic)	microbial growth, broth dilution	ATCC27853	–	5000 µg/mL
CC[C@H](C)[C@H](NC(=O)[C@@H](CCCNC(=N)N)NC(=O)[C@H](CCCNC(=N)N)NC(=O)[C@@H]1CCCN1C(=O)[C@@H]1CCCN1C(=O)[C@H](CCCCN)NC(=O)[C@@H]1CCCN1C(=O)[C@H](CCCNC(=N)N)NC(=O)[C@@H]1CCCN1C(=O)[C@H](CC(C)C)NC(=O)[C@H](Cc1ccc(O)cc1)NC(=O)[C@@H]1CCCN1C(=O)[C@@H]1CCCN1C(=O)[C@H](CCCCN)NC(=O)[C@H](CC(=O)O)NC(=O)[C@@H](N)C(C)C)C(=O)N[C@@H](Cc1ccc(O)cc1)C(=O)N[C@@H](CC(N)=O)C(=O)N[C@H](CCCNC(=N)N)C(N)=O	broth microdilution	DSM 1117	18 h, 37 °C, 25% MHB2	64 µg/mL
COc1ccc2ccc(O)c(/C=N/[C@H]3CCCC[C@H]3/N=C/c3cc(F)ccc3O)c2c1	microbial growth, broth dilution	–	–	> 40 µM
COc1cc(C(=O)O)ccc1NC(=O)c1ccc(NC(=O)c2ccc(NC(=O)[C@H](Cc3c[nH]nn3)NC(=O)c3ccc(NC(=O)/C(C)=C/c4ccc(O)cc4)cc3)cc2)cc1O	broth microdilution	ciprofloxacin-resistant	–	32 µg/mL
CC1(C)[C@H](NC(=O)/C(=N\OC2(C(=O)O)CC2)c2nsc(N)n2)C(=O)N1OS(=O)(=O)O	agar dilution	ATCC 27853	–	16 µg/mL
CC(C)C[C@@H]1NC(=O)[C@@H](CC(C)C)NC(=O)[C@H](CCN)NC(=O)[C@@H](NC(=O)[C@H](CCN)NC(=O)[C@@H](NC(=O)CCCCN=[N+]=[N-])[C@@H](C)O)CCNC(=O)[C@H]([C@@H](C)O)NC(=O)[C@H](CCN)NC(=O)[C@H](CCN)NC1=O	broth microdilution	ATCC 10145, cation-adjusted Mueller-Hinton broth	18 to 20 h, 37 °C, 0.002% polysorbate 80	4 µg/mL
CCCCCCCCn1cc[n+](CCCCCCCCOc2cc(OCCCCCCCC[n+]3ccn(CCCCCCCC)c3)cc(OCCCCCCCC[n+]3ccn(CCCCCCCC)c3)c2)c1.[Br-].[Br-].[Br-]	–	PAO1	–	8 µM
CCOc1c(NC(=O)c2ccc(NC(=O)[C@H](Cc3c[nH]nn3)NC(=O)c3ccc(NC(=O)/C(C)=C/c4ccc(O)cc4)cc3)cc2)ccc(C(=O)Nc2ccc(C(=O)O)c(O)c2OC)c1O	broth microdilution	ciprofloxacin-sensitive	–	64 µg/mL
NC[C@H]1O[C@H](O[C@H]2[C@H](O)[C@@H](O[C@H]3O[C@H](CO)[C@@H](O)[C@H](N)[C@H]3O)[C@H](N)C[C@@H]2N)[C@H](N)C[C@@H]1O	broth microdilution	phenazine non-producing	–	0.125 µg/mL
COc1c(C)c(OS(=O)(=O)c2ccccc2)c(C)c(O)c1C(=O)/C=C/c1ccccc1	microbial growth, broth dilution	ATCC27853	–	5000 µg/mL
CC1(C)[C@H](NC(=O)/C(=N\OCCN)c2csc(N)n2)C(=O)N1OS(=O)(=O)O	agar dilution	PAO1	–	> 64 µg/mL
CCCCCCCCCCCC[N+](C)(C)CCCCOc1cc(OCCCC[N+](C)(C)CCCCCCCCCCCC)cc(OCCCC[N+](C)(C)CCCCCCCCCCCC)c1.[Br-].[Br-].[Br-]	–	PAO1	–	16 µM
polymyxin B	broth microdilution	PAO1 wild type	–	2 µg/mL
Cc1c(CN(C)C(=O)/C=C/c2cnc3c(c2)CC(N)C(=O)N3)oc2ccccc12 (stereo not drawn)	microbial growth, broth dilution	PA01	–	> 64 µg/mL
COc1ccc2ccc(O)c(/C=N/[C@H]3CCCC[C@H]3/N=C/c3cccc(OC)c3O)c2c1	microbial growth, broth dilution	–	–	> 40 µM
COc1c(NC(=O)c2ccc(NC(=O)c3ccc(NC(=O)[C@H](Cc4c[nH]nn4)NC(=O)c4ccc(NC(=O)/C(C)=C/c5ccc(O)cc5)cc4)cc3)cc2O)ccc(C(=O)O)c1O	broth microdilution	ciprofloxacin-sensitive	–	32 µg/mL
CC[C@H]1OC(=O)[C@H](C)[C@@H](OC(=O)Cc2ccc3c(c2)OCO3)[C@H](C)[C@@H](O[C@@H]2O[C@H](C)C[C@H](N(C)C)[C@H]2O)[C@](C)(OC)C[C@@H](C)C(=O)[C@H](C)[C@@H](O)[C@]1(C)O	–	PAO397, five efflux pumps deleted	–	32 µg/mL
C#CCO/N=C(\C(=O)N[C@@H]1C(=O)N(S(=O)(=O)O)[C@H]1C)c1csc(N)n1	microbial growth, agar dilution	ATCC27	–	32 µg/mL
CC[C@H]1OC(=O)[C@H](C)[C@@H](OC(=O)Cc2c(F)cc([N+](=O)[O-])cc2F)[C@H](C)[C@@H](O[C@@H]2O[C@H](C)C[C@H](N(C)C)[C@H]2O)[C@](C)(OC)C[C@@H](C)C(=O)[C@H](C)[C@@H](O)[C@]1(C)O	–	PAO397, five efflux pumps deleted	–	32 µg/mL
COc1ccc2ccc(O)c(/C=N/[C@H]3CCCC[C@H]3/N=C/c3ccc(C)cc3O)c2c1	microbial growth, broth dilution	–	–	> 40 µM

Excerpt of the above:
Molecule	assay	test system	conditions	MIC
COc1ccc2ccc(O)c(/C=N/[C@H]3CCCC[C@H]3/N=C/c3cccc(OC)c3O)c2c1	microbial growth, broth dilution	–	–	> 40 µM
CC(C)C[C@@H]1NC(=O)[C@@H](CC(C)C)NC(=O)[C@H](CCN)NC(=O)[C@@H](NC(=O)[C@H](CCN)NC(=O)[C@@H](N)[C@@H](C)O)CCNC(=O)[C@H]([C@@H](C)O)NC(=O)[C@H](CCN)NC(=O)[C@H](CCN)NC1=O	broth microdilution	ATCC 27853, cation-adjusted Mueller-Hinton broth	–	> 138 µM
